Assay results of several laboratories.
Protocols differ between the studies behind these lines. “And” joins repeats or separate records; there may be more than shown. ± gives the spread as reported.
Tpo: Thyroid peroxidase (Tpo, Rattus norvegicus, UniProt P14650)
UniProt P14650, sequence (whole entry, looked up): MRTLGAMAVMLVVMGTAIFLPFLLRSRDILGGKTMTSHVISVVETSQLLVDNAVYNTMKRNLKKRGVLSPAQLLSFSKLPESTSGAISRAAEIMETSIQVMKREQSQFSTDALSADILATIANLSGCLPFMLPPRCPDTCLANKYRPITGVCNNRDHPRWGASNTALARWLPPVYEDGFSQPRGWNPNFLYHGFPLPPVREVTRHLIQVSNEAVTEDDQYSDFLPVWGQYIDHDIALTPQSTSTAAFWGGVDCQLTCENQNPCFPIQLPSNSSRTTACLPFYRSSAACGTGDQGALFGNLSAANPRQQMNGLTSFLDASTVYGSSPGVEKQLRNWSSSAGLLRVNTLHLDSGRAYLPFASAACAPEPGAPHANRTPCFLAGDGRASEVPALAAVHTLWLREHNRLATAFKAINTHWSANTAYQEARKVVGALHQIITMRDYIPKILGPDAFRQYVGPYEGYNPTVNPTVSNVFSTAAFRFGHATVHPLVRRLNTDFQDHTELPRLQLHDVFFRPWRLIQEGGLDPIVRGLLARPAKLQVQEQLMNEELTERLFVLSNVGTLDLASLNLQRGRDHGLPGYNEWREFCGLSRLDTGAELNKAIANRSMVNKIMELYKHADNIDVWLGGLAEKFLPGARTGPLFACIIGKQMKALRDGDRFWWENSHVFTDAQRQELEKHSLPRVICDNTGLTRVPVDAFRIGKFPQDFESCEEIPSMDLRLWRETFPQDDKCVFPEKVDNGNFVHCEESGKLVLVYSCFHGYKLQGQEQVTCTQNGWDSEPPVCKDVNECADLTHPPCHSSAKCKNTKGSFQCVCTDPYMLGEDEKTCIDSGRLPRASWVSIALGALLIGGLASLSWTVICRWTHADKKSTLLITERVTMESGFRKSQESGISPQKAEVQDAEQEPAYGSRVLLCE
RIPK2: Receptor-interacting serine/threonine-protein kinase 2 (RIPK2, Homo sapiens, UniProt O43353)
UniProt O43353, sequence (whole entry, looked up): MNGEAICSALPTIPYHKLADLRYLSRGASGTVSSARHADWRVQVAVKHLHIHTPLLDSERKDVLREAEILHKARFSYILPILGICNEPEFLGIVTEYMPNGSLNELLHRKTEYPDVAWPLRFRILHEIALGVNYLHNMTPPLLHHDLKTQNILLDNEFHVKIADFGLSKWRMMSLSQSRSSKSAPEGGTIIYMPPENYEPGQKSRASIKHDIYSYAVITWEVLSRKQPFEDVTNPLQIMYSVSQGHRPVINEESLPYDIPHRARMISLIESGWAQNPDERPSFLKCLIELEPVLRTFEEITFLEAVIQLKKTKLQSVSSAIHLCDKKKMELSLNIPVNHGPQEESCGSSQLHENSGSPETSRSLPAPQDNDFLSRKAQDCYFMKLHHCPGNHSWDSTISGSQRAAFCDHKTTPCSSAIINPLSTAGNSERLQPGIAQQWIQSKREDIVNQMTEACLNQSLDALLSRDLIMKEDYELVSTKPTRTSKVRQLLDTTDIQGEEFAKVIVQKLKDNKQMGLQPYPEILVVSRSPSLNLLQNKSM
MGLL: Monoglyceride lipase (MGLL, Homo sapiens, UniProt Q99685)
UniProt Q99685, sequence (whole entry, looked up): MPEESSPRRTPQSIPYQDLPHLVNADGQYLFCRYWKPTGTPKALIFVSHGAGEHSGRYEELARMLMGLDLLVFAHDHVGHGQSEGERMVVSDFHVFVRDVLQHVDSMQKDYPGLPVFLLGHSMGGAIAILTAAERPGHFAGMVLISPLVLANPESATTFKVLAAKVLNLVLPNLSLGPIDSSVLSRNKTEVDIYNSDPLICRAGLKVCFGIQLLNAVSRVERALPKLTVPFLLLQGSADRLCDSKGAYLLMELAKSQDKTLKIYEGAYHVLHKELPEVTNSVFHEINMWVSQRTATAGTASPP
CACNA1I: Voltage-dependent T-type calcium channel subunit alpha-1I (CACNA1I, Homo sapiens, UniProt Q9P0X4)
UniProt Q9P0X4, sequence (whole entry, looked up): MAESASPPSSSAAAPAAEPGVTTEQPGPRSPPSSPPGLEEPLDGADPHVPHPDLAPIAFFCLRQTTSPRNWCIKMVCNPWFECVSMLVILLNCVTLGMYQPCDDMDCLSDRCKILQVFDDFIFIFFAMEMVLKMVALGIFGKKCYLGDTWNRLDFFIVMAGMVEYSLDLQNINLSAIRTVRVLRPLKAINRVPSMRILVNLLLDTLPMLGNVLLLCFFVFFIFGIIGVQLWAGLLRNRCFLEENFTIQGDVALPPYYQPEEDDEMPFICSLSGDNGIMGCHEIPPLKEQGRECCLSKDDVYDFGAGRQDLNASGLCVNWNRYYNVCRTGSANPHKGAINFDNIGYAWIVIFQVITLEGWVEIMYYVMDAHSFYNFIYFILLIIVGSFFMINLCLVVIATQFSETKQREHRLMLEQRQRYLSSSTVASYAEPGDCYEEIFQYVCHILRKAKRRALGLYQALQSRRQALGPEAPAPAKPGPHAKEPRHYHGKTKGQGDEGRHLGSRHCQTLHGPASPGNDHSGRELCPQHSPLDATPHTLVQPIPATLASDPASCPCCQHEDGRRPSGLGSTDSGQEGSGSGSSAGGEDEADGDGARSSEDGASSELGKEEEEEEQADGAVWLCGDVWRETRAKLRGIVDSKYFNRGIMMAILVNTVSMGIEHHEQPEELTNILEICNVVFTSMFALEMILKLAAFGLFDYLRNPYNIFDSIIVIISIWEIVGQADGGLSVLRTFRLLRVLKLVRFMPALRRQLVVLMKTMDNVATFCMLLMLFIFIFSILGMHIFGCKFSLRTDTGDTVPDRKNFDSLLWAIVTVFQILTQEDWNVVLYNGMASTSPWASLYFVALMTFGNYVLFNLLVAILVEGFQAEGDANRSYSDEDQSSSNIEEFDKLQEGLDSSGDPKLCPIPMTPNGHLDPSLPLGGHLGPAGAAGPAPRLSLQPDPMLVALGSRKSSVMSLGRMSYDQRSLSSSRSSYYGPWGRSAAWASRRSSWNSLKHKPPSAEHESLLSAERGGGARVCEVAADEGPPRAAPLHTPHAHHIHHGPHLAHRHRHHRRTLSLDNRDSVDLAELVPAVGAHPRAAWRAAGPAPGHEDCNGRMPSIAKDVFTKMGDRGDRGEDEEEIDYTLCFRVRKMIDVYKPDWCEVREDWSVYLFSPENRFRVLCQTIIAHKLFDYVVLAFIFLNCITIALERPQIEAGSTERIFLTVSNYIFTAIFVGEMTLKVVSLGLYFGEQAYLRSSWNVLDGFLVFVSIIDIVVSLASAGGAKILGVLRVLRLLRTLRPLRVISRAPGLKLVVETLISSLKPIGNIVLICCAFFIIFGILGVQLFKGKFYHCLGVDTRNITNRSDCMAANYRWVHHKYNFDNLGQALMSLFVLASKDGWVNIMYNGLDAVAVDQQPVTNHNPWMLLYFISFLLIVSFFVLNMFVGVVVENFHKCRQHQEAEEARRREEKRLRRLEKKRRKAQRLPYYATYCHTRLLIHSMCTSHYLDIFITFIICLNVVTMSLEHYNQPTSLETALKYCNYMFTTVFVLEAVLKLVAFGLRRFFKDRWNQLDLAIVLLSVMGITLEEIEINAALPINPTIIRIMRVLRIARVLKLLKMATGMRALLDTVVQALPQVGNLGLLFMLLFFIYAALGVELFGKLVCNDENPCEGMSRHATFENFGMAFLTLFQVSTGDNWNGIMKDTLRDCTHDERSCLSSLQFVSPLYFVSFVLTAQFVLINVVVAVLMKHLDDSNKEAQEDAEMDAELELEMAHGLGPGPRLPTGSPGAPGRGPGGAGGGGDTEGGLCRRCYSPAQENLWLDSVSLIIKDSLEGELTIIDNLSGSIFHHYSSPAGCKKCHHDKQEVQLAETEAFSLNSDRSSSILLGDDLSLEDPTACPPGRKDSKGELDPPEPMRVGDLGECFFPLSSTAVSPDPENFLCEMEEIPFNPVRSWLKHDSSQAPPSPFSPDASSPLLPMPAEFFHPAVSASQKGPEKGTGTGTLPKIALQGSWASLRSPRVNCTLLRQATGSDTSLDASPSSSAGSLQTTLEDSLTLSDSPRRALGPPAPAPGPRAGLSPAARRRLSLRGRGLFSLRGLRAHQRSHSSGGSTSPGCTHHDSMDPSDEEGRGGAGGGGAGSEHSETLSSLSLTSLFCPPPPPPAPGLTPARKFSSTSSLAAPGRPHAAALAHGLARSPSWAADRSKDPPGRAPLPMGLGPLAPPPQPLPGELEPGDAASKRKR
gag-pol integrase: Gag-Pol polyprotein, integrase (gag-pol, Human immunodeficiency virus 1, UniProt P12497)
UniProt Q14642, sequence (whole entry, looked up): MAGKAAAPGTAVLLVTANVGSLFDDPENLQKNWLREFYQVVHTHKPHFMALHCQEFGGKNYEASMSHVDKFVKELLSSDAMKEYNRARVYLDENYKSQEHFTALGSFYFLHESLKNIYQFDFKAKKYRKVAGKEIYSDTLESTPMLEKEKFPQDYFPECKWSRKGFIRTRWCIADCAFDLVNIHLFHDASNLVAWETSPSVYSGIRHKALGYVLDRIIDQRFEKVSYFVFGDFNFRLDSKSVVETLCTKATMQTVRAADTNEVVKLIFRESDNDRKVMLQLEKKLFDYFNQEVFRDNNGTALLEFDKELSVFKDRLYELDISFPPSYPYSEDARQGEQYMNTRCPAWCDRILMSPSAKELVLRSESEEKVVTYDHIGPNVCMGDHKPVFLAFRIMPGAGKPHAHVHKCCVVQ
UniProt P34913, sequence (whole entry, looked up): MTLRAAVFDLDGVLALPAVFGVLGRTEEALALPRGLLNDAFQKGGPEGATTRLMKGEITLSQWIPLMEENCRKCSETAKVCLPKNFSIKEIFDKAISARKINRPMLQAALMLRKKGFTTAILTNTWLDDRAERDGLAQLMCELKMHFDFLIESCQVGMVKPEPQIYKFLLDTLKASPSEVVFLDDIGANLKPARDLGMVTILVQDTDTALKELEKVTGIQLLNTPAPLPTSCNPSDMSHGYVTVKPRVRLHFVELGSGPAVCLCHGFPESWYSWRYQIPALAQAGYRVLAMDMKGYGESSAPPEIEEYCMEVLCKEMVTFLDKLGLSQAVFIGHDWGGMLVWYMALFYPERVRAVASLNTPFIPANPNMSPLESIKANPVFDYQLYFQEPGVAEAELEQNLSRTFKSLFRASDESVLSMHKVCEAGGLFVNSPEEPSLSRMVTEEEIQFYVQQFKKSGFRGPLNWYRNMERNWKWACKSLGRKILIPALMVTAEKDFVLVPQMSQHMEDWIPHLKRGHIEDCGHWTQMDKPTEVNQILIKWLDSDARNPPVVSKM

| Substance | target | test | test system | conditions | IC50 |
| --- | --- | --- | --- | --- | --- |
| CC(C)NCc1ccc(C[C@@H]2NC(=O)[C@@H](N(C)C(=O)c3ccc4ccccc4c3)NC(=O)[C@H](Cc3ccccc3)NC(=O)[C@H](N)CSSC[C@@H](C(=O)N[C@@H](Cc3ccc4ccccc4c3)C(N)=O)NC(=O)[C@H](Cc3ccccc3)NC2=O)cc1 | SSTR1 (Homo sapiens, UniProt P30872) | ligand displacement, radioligand | – | cell membranes | 0.0012 µM |
| O=C(O)c1cc(Br)c2ccc(Br)cc2c1 | Glutamate NMDA receptor; Grin1/Grin2c (Rattus norvegicus, UniProt P35439+Q00961) | ion current, two-electrode voltage clamp | – | oocytes | 84.1 µM |
| Oc1ccc(/C=C/c2cc(O)cc(O)c2)cc1 | Tpo | tyrosine iodination, LC-MS/MS | rat thyroid microsomes | with: KI 300 µM, H2O2 40 µM | 0.64 µM |
| benzamide | HDAC6 (Homo sapiens, UniProt Q9UBN7) | enzyme activity, inhibitor, fluorogenic deacetylase | – | with: acetyl-lysine tripeptide-AMC substrate | > 30 µM |
| COc1ccc2c(CC(=O)NCCCC[C@H](N)C(=O)N[C@@H](CCC(=O)O)C(=O)N[C@@H](Cc3ccc(CS(=O)(=O)O)cc3)C(=O)N[C@@H](CCC(=O)O)C(=O)N[C@@H](Cc3ccc(CS(=O)(=O)O)cc3)C(=O)N[C@@H](CC(C)C)C(=O)N[C@@H](CC(=O)O)C(=O)N[C@@H](Cc3ccc(CS(=O)(=O)O)cc3)C(=O)N[C@@H](CC(=O)O)C(=O)N[C@@H](Cc3ccccc3)C(=O)N[C@@H](CC(C)C)C(=O)N3CCC[C@H]3C(=O)N[C@@H](CCC(=O)O)C(=O)N[C@H](C(=O)N[C@@H](CCC(=O)O)C(=O)N3CCC[C@H]3C(=O)N[C@@H](CC(C)C)C(=O)O)[C@@H](C)O[C@H]3O[C@H](CO[C@@H]4O[C@H](CO)[C@@H](O[C@@H]5O[C@H](CO)[C@H](O)[C@H](O[C@]6(C(=O)O)C[C@H](O)[C@@H](NC(C)=O)[C@H]([C@H](O)[C@H](O)CO)O6)[C@H]5O)[C@H](O[C@@H]5O[C@@H](C)[C@@H](O)[C@@H](O)[C@@H]5O)[C@H]4NC(C)=O)[C@H](O)[C@H](O[C@@H]4O[C@H](CO)[C@H](O)[C@H](O)[C@H]4O)[C@H]3NC(C)=O)cc(=O)oc2c1 | P-selectin (SELP, Homo sapiens, UniProt P16109) | chimera binding to neutrophils, inhibitor, flow cytometry | human neutrophils | with: SELP Fc chimera 2 µg/mL | ~14 µM |
| O=C(NNC(=O)c1ccc(CNS(=O)(=O)c2ccc(F)c(Cl)c2)cc1)c1ccccc1 | Glutamate NMDA receptor; Grin1/Grin2a (Grin1/Grin2a, Rattus norvegicus, UniProt P35439+Q00959, E790M) | ion current, two-electrode voltage clamp | – | oocytes | 0.6 µM |
| CCN(CC)CC1CCN(c2ncc3ncnc(Nc4ccc(F)c(Cl)c4)c3n2)CC1 | SRC (Homo sapiens, UniProt P12931) | enzyme activity, inhibitor, ADP detection | – | – | > 10 µM |
| Cn1ncc(Nc2ccc3c(c2)CCN(CCCCCNC(=O)COc2cccc4c2C(=O)N(C2CCC(=O)NC2=O)C4=O)C3)c(Cl)c1=O (stereo not shown) | Bromodomain-containing protein 9, bromodomain (BRD9, Homo sapiens, UniProt Q9H8M2) | binding, AlphaScreen | – | bromodomain, with: H4 acetylated peptide, 100 nM | 0.021 µM |
| CCn1c(C=Cc2cccnc2)nc2ccccc2c1=O | RAD51 (Homo sapiens, UniProt Q06609) | DNA strand exchange (D-loop), inhibitor | – | 30 min | 15.3 µM |
| C[C@]12CC[C@@H]3c4ccc(O)cc4CC[C@H]3[C@@H]1[C@H](OCCC(N)=O)CC2=O | HSD17B1 (Homo sapiens, UniProt P14061) | enzyme activity, inhibitor, radiometric | – | – | 2.2 to 5.1 µM |
| CCOc1ccc2cc(-c3cn(CC4CCN(C(C)=O)CC4)c4ncnc(N)c34)ccc2c1 | CDPK1 (Plasmodium falciparum, UniProt P62344) | enzyme activity, inhibitor | – | – | > 2 µM |
| O=C(O)c1cc(O)c(O)c(O)c1 | Tpo | enzyme activity, inhibitor, LC-MS/MS, refers to: monoiodotyrosine | rat thyroid microsomes | with: L-tyrosine substrate | 1.01 µM and 0.39 µM |
| CN1C(=O)NC(Cc2c[nH]c3c(Cl)cccc23)C1=O (stereo not shown) | RIPK2 | enzyme activity, inhibitor, ADP-Glo kinase | – | 10 ng enzyme | > 10 µM |
| O=S(=O)(Nc1cccc(-c2nnc(C3CCCCC3)o2)c1)c1cc(Cl)cc(Cl)c1 | α-amylase | enzyme activity, inhibitor | – | – | 3.27 µM |
| O=C(COc1cccc2c1CCCC2)Nc1cc(Cl)ccc1C(=O)O | TRPM4 (Homo sapiens, UniProt Q8TD43) | ion flux, inhibitor, fluorescence | – | – | 1.2 µM |
| O=C(O)/C=C/c1ccc(O)c(O)c1 | firefly luciferase | ADP-Glo ADP processing, luminescence counter-screen | cell-free, no kinase | up to 77 µM, with: ADP 1.25 µM, ATP 11.25 µM | no inhibition |
| O=C(OC(C(F)(F)F)C(F)(F)F)N1CCC(CCn2nnc3ccccc32)CC1 | MGLL | enzyme activity, inhibitor | – | – | 0.19 µM |
| O=c1cc(-c2ccccc2)oc2cc(O)c(O)c(O)c12 | lipoxygenase | enzyme activity, inhibitor | – | pH 8.0, 25 °C, with: linoleic acid | 22.2 ± 0.09 µM |
| CCCCC[C@H](CC(=O)NO)C(=O)N[C@H](C(=O)N1CCC[C@H]1CO)C(C)C | MEP1A (Homo sapiens, UniProt Q16819) | enzyme activity, inhibitor, FRET | – | – | 0.0044 ± 0.0002 µM |
| CCCS(=O)(=O)Nc1ccc(-c2cc(-c3ccc(N4CCNCC4)cc3)cnc2C)cc1OC | RIPK2 | kinase activity, inhibitor, ADP-Glo | – | tested up to 10 µM | > 10 µM |

| Substance | target | test | test system | conditions | IC50 |
| --- | --- | --- | --- | --- | --- |
| O=C(Nc1cccc(-c2nnc(C3CCCCC3)o2)c1)c1ccco1 | α-amylase | enzyme activity, inhibitor | – | – | 6.21 µM |
| O=[N+]([O-])c1ccc(Oc2ccc(S(=O)(=O)NC3CCCCC3)cc2)cc1 | NADH dehydrogenase complex I, ubiquinone-binding site IQ (Rattus norvegicus, UniProt A6K8N6+P03889+Q641Y2) | superoxide/H2O2 production | isolated mitochondria | complex I site IQ, with: succinate 5 mM | 4.5 µM |
| O=C(NCCCCCCCn1ccc2ccc(F)cc21)OC(C(F)(F)F)C(F)(F)F | MGLL | enzyme activity, inhibitor | – | – | 8.3 µM |
| C[C@H](CCC(=O)NCC(=O)O)[C@H]1CC[C@H]2[C@@H]3[C@H](O)C[C@@H]4C[C@H](O)CC[C@]4(C)[C@H]3CC[C@]12C | Organic solute transporter subunit alpha, with OSTβ (SLC51A, Homo sapiens, UniProt Q86UW1) | DHEAS uptake, inhibitor | Flp-In 293 overexpressing OSTα/β | 30 s, with: DHEAS 4 µM | > 200 µM |
| OC1CCCc2ccc(OCCOc3ccccc3)cc21 (stereo not shown) | MAOB (Homo sapiens, UniProt P27338) | enzyme activity, inhibitor, fluorescence | – | – | 0.189 µM |
| CC12CC3CC(C)(C1)CC(Nc1c(Nc4ccc(C(=O)N5CCC[C@H](C(=O)NCCCCCCC(=O)NO)C5)cc4)c(=O)c1=O)(C3)C2 | EPHX2 (Homo sapiens, UniProt P34913) | enzyme activity, inhibitor, fluorescence | – | – | 0.14 µM |
| COc1cc(/C=C/C(O)=C/C(=O)/C=C/c2ccc(O)cc2)ccc1O | HSD3B2 (Homo sapiens, UniProt P26439) | enzyme activity, inhibitor | KGN cell homogenate | lower bound from 100 µM screen, with: pregnenolone | < 100 µM |
| Cc1ncc([N+](=O)[O-])n1CC(C)O (stereo not shown) | CYP2C19 (Homo sapiens, UniProt P33261) | enzyme activity, inhibitor | human liver microsomes | 30 min, with: (S)-mephenytoin | > 1000 µM |
| COC(=O)c1c(C)[nH]c(C)c1C(=O)c1ccccc1Cc1ccccc1 | CACNA1I | inhibitor, FLIPR calcium | HEK293 with GCaMP6s-CAAX, Kir2.3 | with: KCl at EC90 | 31 µM |
| C=CC(C)(CO)c1cc2cc(-c3ccc(O)cc3O)c(=O)oc2cc1O (stereo not shown) | RELA (Homo sapiens, UniProt Q04206) | NF-κB activity, inhibitor | – | – | 0.23 µM |
| CC(=O)N[C@@H](CSC/C=C(\C)CC/C=C(\C)CCC=C(C)C)C(=O)O | Bifunctional epoxide hydrolase 2, N-terminal phosphatase domain (EPHX2, Homo sapiens, UniProt P34913) | N-terminal phosphatase activity | human | 10 min preincubation, with: AttoPhos 15 µM | 3.4 µM |
| C=C(C)CCOP(=O)(O)OP(=O)(O)OP(=O)(O)OC[C@H]1O[C@@H](n2cnc3c(N)ncnc32)[C@H](O)[C@@H]1O | MAP3K12 (Homo sapiens, UniProt Q12852) | enzyme activity, inhibitor, HotSpot kinase | – | with: ATP 1 µM | 3.4 µM |
| CC(C)(C)CCN1C[C@@H]2C(CNC(=O)c3cc(Cl)cc(Cl)c3)[C@@H]2C1 (stereo partly shown) | CACNA1I | inhibitor, FLIPR calcium | HEK293 with GCaMP6s-CAAX, Kir2.3 | with: KCl at EC90 | 0.077 µM |
| CCOC(=O)C=CC(CC1CCNC1=O)NC(=O)C(Cc1ccc(F)cc1)NC(=O)C(N)Cc1ccccc1 (stereo not shown) | Replicase polyprotein 1ab, main protease (rep, Severe acute respiratory syndrome coronavirus 2, UniProt P0DTD1) | enzyme activity, inhibitor | – | – | 10 µM |
| CCOC(=O)/C(O)=C/C(=O)c1cn(Cc2ccc(F)cc2)c2cc(F)ccc2c1=O | gag-pol integrase | strand transfer, inhibitor, gel-based | – | with: Mg2+ | 2.9 µM |
| O=P(O)(O)Oc1cc(-c2cc(OP(=O)(O)O)c(OP(=O)(O)O)c(OP(=O)(O)O)c2)cc(OP(=O)(O)O)c1OP(=O)(O)O | Inositol polyphosphate-5-phosphatase A (Homo sapiens, UniProt Q14642) | enzyme activity, inhibitor | – | with: Ins(1,4,5)P3 1.0 µM | < 1 µM and 0.73 µM |
| CC(C)C[C@H](NC(=O)[C@H](Cc1ccc2ccccc2c1)NC(=O)[C@H](CCC(=O)O)NC(=O)CN1CCOCC1)C(=O)NC1CC1c1ccccc1 (stereo partly shown) | APC (Homo sapiens, UniProt P25054) | ligand displacement, FP | – | – | 190 µM |
| O=c1c(O)c(-c2ccc(O)c(O)c2)oc2cc(O)cc(O)c12 | UGT1A4 (Homo sapiens, UniProt P22310) | glucuronidation | pooled human liver microsomes | no preincubation | 35 µM |
| CCOC(=O)/C(O)=C/C(=O)c1cn(Cc2ccc(F)cc2)c2ccc(F)cc2c1=O | gag-pol integrase | strand transfer, inhibitor, gel-based | – | with: Mg2+ | 0.44 µM |
| Cc1ccc(S(=O)(=O)N[C@H](CC(=O)N[C@@H](C)C(=O)NCc2cccc3ccccc23)CC(=O)NC(C)(C)C)cc1 | Proteasome component C5/PSMB5 (Homo sapiens, UniProt P20618+P28074) | chymotrypsin-like activity, inhibitor | – | with: suc-LLVY-AMC | 35.3 µM |

Some of these lines once more:
| Substance | target | test | test system | conditions | IC50 |
| --- | --- | --- | --- | --- | --- |
| benzamide | HDAC6 (Homo sapiens, UniProt Q9UBN7) | enzyme activity, inhibitor, fluorogenic deacetylase | – | with: acetyl-lysine tripeptide-AMC substrate | > 30 µM |
| COc1ccc2c(CC(=O)NCCCC[C@H](N)C(=O)N[C@@H](CCC(=O)O)C(=O)N[C@@H](Cc3ccc(CS(=O)(=O)O)cc3)C(=O)N[C@@H](CCC(=O)O)C(=O)N[C@@H](Cc3ccc(CS(=O)(=O)O)cc3)C(=O)N[C@@H](CC(C)C)C(=O)N[C@@H](CC(=O)O)C(=O)N[C@@H](Cc3ccc(CS(=O)(=O)O)cc3)C(=O)N[C@@H](CC(=O)O)C(=O)N[C@@H](Cc3ccccc3)C(=O)N[C@@H](CC(C)C)C(=O)N3CCC[C@H]3C(=O)N[C@@H](CCC(=O)O)C(=O)N[C@H](C(=O)N[C@@H](CCC(=O)O)C(=O)N3CCC[C@H]3C(=O)N[C@@H](CC(C)C)C(=O)O)[C@@H](C)O[C@H]3O[C@H](CO[C@@H]4O[C@H](CO)[C@@H](O[C@@H]5O[C@H](CO)[C@H](O)[C@H](O[C@]6(C(=O)O)C[C@H](O)[C@@H](NC(C)=O)[C@H]([C@H](O)[C@H](O)CO)O6)[C@H]5O)[C@H](O[C@@H]5O[C@@H](C)[C@@H](O)[C@@H](O)[C@@H]5O)[C@H]4NC(C)=O)[C@H](O)[C@H](O[C@@H]4O[C@H](CO)[C@H](O)[C@H](O)[C@H]4O)[C@H]3NC(C)=O)cc(=O)oc2c1 | P-selectin (SELP, Homo sapiens, UniProt P16109) | chimera binding to neutrophils, inhibitor, flow cytometry | human neutrophils | with: SELP Fc chimera 2 µg/mL | ~14 µM |
| O=C(NNC(=O)c1ccc(CNS(=O)(=O)c2ccc(F)c(Cl)c2)cc1)c1ccccc1 | Glutamate NMDA receptor; Grin1/Grin2a (Grin1/Grin2a, Rattus norvegicus, UniProt P35439+Q00959, E790M) | ion current, two-electrode voltage clamp | – | oocytes | 0.6 µM |
| CCN(CC)CC1CCN(c2ncc3ncnc(Nc4ccc(F)c(Cl)c4)c3n2)CC1 | SRC (Homo sapiens, UniProt P12931) | enzyme activity, inhibitor, ADP detection | – | – | > 10 µM |
| Cn1ncc(Nc2ccc3c(c2)CCN(CCCCCNC(=O)COc2cccc4c2C(=O)N(C2CCC(=O)NC2=O)C4=O)C3)c(Cl)c1=O (stereo not shown) | Bromodomain-containing protein 9, bromodomain (BRD9, Homo sapiens, UniProt Q9H8M2) | binding, AlphaScreen | – | bromodomain, with: H4 acetylated peptide, 100 nM | 0.021 µM |
| CCn1c(C=Cc2cccnc2)nc2ccccc2c1=O | RAD51 (Homo sapiens, UniProt Q06609) | DNA strand exchange (D-loop), inhibitor | – | 30 min | 15.3 µM |
